Assay results pooled from the literature.
Each line is one published result; not all experiments were run side by side. ± gives the spread as reported.
Organism: Plasmodium falciparum

SMILES | assay | test system | conditions | scale | quantity | value
COC(=O)C1=CO[C@@H](C)[C@@H]2Cn3ccc4c5ccccc5nc-4c3C[C@H]12 | – | C2B, atovaquone-resistant | 72 h | relative to: C2B over 3D7 | resistance index | 0.6
CCCN(Cc1nnc(-c2ccco2)o1)C(=O)C1CCCN(C(=O)c2ccc(Cl)cc2)C1 (stereo not drawn) | parasite growth, SYBR Green | 3D7 wild type | 72 h | – | EC50 | 163 ± 49 nM
O=S(=O)(c1ccc(-c2ccc3ncnc(Nc4ccc(OCc5cccc(F)c5)c(Cl)c4)c3c2)cc1)N1CCSCC1 | parasite growth, SYBR Green fluorescence | W2, drug-resistant | – | – | EC50 | 1600 nM
CCC1(CC)CC(=O)N(C2CCOc3ccc(C(=O)NC4CC(C)(C)Oc5ccccc54)cc32)C(=N)N1 (stereo not drawn) | parasite growth | Dd2-ATV | – | – | EC50 | 0.4 ± 0.1 nM
O=S(=O)(c1ccc(-c2ccc3ncnc(Nc4ccc(OCc5cccc(F)c5)cc4)c3c2)cc1)N1CCOCC1 | parasite growth, SYBR Green | D6 | blood stage | – | EC50 | 440 nM
COc1ccccc1-n1ccnc1SCC(=O)Nc1cc(C(F)(F)F)ccc1Cl | parasite growth | Dd2 | – | – | EC50 | 2.27 ± 0.54 nM
Fc1cccc(COc2ccc(Nc3ncnc4ccc(-c5ccc(N6CCNCC6)cc5)cc34)cc2Cl)c1 | parasite growth, SYBR Green | D6 | blood stage | – | EC50 | 380 nM
C[C@H]1Cc2c([nH]c3cc(Cl)c(F)cc23)[C@@]2(N1)C(=O)Nc1ccc(Cl)cc12 | parasite growth | W2Mef | – | – | EC50 | 2.1 ± 0.3 nM
CC(C)(C)OC(=O)N1CCN(S(=O)(=O)c2ccc(-c3ccc4ncnc(Nc5ccc(OCc6cccc(F)c6)c(Cl)c5)c4c3)cc2)CC1 | parasite growth, SYBR Green | D6 | blood stage | – | EC50 | 270 nM
CC(NC(=O)c1cccc(C(c2ccccc2)N2C(=N)NC(C)(C(C)C)CC2=O)c1)c1ccccc1 (stereo not drawn) | parasite growth | K1 | – | – | EC50 | 12.3 nM
Cc1cc(Nc2ccc(Cl)cc2)n2nc(C(F)(F)F)nc2n1 | parasite growth, SYBR Green | 3D7 | 72 h | – | EC50 | > 12500 nM
O=S(=O)(c1ccc(-c2ccc3ncnc(Nc4ccc(OCc5cccc(F)c5)c(Cl)c4)c3c2)cc1)N1CCOCC1 | parasite growth, SYBR Green fluorescence | W2, drug-resistant | – | – | EC50 | 590 nM
C[C@H](Oc1ccc(C(=O)c2ccc(F)cc2)cc1)C(=O)N1CCc2ccc(C(F)(F)F)cc21 | parasite growth, SYBR Green | 3D7 | – | – | EC50 | 1.83 nM
OC(c1cc(C(F)(F)F)nc2c(C(F)(F)F)cccc12)C1CCCCN1 (stereo not drawn) | parasite growth | 3D7 | – | – | EC50 | 22.5 ± 5.6 nM
COc1cc2c3cc1Oc1cc(ccc1O)CC1c4c(cc(OC)c(O)c4Oc4ccc(cc4)CC3N(C)CC2)CCN1C (stereo not drawn) | parasite growth, stage-specific treatment | – | 12 h, early to late trophozoite stage | – | IC50 | 6590 ± 160 nM
Cc1nc2c(C#N)cccc2n1-c1ccc(C(=O)NC2CC2)s1 | parasite growth, SYBR Green | 3D7 wild type | 72 h | – | EC50 | 6.88 ± 1.5 nM
O=S(=O)(c1ccc(-c2ccc3ncnc(Nc4ccc(OCc5ccc(F)cc5)c(Cl)c4)c3c2)cc1)N1CCOCC1 | parasite growth, SYBR Green fluorescence | C235 (TM91C235), drug-resistant | – | – | EC50 | 240 nM
COc1ccccc1-n1c(SCC(=O)Nc2ccccc2F)nc2cccnc21 | parasite growth | Dd2 | – | – | EC50 | 162 ± 44 nM
O=S(=O)(c1ccc(-c2ccc3ncnc(Nc4ccc(OCc5cccc(F)c5)c(Cl)c4)c3c2)cc1)N1CCCC1 | parasite growth, SYBR Green fluorescence | W2, drug-resistant | – | – | EC50 | 800 nM
O=C1C(O)=C([C@H]2CC[C@H](c3ccc(Cl)cc3)CC2)C(=O)c2ccccc21 | parasite growth | CAM3 REV | – | – | EC50 | 0.7 ± 0.3 nM
Cc1nc2ccc(-c3ccc(OC(F)(F)F)cc3)cc2c(O)c1C#N | parasite growth, SYBR Green | 3D7 | 72 h | – | EC50 | 2170 nM

Some of these lines once more:
SMILES | assay | test system | conditions | scale | quantity | value
C[C@H](Oc1ccc(C(=O)c2ccc(F)cc2)cc1)C(=O)N1CCc2ccc(C(F)(F)F)cc21 | parasite growth, SYBR Green | 3D7 | – | – | EC50 | 1.83 nM
OC(c1cc(C(F)(F)F)nc2c(C(F)(F)F)cccc12)C1CCCCN1 (stereo not drawn) | parasite growth | 3D7 | – | – | EC50 | 22.5 ± 5.6 nM
COc1cc2c3cc1Oc1cc(ccc1O)CC1c4c(cc(OC)c(O)c4Oc4ccc(cc4)CC3N(C)CC2)CCN1C (stereo not drawn) | parasite growth, stage-specific treatment | – | 12 h, early to late trophozoite stage | – | IC50 | 6590 ± 160 nM
